# Assay results gathered from unrelated publications.
# Each line is one published result; not all experiments were run side by side. “And” joins repeats or separate records; there may be more than shown. ± marks the error that the study gave.
# CELF1 del215-384: CUGBP Elav-like family member 1 (CELF1, Homo sapiens, UniProt Q92879, del215-384)
# UniProt Q92879, sequence (whole entry, unmodified, looked up): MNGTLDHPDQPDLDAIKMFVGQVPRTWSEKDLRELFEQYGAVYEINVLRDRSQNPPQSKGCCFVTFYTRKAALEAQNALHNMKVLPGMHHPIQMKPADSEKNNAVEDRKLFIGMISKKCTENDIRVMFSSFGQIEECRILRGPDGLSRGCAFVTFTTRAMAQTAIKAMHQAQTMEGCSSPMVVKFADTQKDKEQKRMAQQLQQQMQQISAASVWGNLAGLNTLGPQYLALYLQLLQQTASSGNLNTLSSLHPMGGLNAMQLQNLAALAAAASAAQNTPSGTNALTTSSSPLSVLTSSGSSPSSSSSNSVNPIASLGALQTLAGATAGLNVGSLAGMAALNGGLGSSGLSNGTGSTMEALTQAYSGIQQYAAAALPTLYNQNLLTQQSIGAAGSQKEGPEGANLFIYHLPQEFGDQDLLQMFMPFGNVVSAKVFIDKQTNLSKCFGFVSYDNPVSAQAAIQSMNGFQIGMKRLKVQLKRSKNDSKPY
# CD274 with PD-1: Programmed cell death 1 ligand 1, with PD-1 (CD274, Homo sapiens, UniProt Q9NZQ7)
# UniProt Q9NZQ7, sequence (whole entry, looked up): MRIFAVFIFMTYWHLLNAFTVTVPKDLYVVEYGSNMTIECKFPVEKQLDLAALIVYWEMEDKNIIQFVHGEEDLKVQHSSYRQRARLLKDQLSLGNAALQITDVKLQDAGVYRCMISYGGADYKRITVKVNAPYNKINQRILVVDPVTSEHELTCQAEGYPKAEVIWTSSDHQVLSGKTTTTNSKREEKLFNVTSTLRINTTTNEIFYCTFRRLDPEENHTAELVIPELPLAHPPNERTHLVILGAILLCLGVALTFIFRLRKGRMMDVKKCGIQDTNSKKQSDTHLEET
# Methionyl-tRNA synthetase, putative: Methionyl-tRNA synthetase, putative (Trypanosoma brucei brucei, UniProt Q38C91)
# Proteasome subunit beta type-9: Proteasome subunit beta type-9 (Homo sapiens, UniProt P28065)
# UniProt P28065, sequence (whole entry, looked up): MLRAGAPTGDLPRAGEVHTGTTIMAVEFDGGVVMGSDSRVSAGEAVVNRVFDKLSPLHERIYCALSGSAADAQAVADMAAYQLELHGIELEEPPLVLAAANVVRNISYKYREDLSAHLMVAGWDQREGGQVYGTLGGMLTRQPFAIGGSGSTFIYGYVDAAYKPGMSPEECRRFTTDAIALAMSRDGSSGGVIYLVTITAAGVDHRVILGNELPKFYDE
# Thymocyte selection-associated high mobility group box protein TOX with KAT7: Thymocyte selection-associated high mobility group box protein TOX, with KAT7 (Homo sapiens, UniProt O94900)
# UniProt O94900, sequence (whole entry, looked up): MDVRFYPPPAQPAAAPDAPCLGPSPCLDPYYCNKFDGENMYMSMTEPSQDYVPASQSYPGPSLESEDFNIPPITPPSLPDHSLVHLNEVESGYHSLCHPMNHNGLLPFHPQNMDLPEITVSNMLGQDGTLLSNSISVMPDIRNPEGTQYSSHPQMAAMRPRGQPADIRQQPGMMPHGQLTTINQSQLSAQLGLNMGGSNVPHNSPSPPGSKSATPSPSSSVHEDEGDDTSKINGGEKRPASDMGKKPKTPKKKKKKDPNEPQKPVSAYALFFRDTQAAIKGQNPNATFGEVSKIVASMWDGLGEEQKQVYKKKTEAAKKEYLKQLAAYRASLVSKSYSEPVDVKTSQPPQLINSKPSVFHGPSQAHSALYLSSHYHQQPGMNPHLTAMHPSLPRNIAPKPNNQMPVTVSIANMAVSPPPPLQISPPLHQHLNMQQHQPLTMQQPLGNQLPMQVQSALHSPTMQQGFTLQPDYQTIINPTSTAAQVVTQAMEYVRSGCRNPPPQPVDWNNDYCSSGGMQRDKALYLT
# CA9: Carbonic anhydrase 9 (CA9, Homo sapiens, UniProt Q16790)
# Integrin alpha-5/beta-1: Integrin alpha-5/beta-1 (Homo sapiens, UniProt P05556+P08648)
# UniProt P08648, sequence (whole entry, looked up): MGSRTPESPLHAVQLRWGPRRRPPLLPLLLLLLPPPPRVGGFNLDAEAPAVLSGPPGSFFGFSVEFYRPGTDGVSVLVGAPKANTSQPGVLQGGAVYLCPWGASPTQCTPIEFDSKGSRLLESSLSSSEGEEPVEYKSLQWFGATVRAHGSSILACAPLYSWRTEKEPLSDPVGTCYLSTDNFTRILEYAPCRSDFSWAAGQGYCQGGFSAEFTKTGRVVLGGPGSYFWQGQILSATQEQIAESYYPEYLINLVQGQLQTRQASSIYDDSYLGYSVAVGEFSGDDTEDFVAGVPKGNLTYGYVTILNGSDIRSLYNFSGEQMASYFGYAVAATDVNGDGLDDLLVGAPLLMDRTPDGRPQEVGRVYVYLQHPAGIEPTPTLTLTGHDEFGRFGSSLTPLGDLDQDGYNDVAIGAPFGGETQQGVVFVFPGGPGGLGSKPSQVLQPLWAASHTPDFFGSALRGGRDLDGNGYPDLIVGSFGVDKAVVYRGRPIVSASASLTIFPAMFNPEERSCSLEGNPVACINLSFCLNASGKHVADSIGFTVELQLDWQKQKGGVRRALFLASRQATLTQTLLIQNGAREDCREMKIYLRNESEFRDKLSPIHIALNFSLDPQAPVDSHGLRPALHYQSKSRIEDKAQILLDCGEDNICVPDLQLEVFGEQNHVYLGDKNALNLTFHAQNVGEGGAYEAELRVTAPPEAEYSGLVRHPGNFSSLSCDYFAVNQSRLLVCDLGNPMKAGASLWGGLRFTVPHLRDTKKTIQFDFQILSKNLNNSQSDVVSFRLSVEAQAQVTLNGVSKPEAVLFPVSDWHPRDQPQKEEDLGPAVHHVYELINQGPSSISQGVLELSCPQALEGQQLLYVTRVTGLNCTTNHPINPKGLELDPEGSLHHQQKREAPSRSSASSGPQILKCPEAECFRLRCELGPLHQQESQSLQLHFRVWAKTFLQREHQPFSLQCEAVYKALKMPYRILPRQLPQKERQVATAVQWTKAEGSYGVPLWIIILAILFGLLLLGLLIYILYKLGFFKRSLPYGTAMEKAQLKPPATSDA
# UniProt P05556, sequence (whole entry, looked up): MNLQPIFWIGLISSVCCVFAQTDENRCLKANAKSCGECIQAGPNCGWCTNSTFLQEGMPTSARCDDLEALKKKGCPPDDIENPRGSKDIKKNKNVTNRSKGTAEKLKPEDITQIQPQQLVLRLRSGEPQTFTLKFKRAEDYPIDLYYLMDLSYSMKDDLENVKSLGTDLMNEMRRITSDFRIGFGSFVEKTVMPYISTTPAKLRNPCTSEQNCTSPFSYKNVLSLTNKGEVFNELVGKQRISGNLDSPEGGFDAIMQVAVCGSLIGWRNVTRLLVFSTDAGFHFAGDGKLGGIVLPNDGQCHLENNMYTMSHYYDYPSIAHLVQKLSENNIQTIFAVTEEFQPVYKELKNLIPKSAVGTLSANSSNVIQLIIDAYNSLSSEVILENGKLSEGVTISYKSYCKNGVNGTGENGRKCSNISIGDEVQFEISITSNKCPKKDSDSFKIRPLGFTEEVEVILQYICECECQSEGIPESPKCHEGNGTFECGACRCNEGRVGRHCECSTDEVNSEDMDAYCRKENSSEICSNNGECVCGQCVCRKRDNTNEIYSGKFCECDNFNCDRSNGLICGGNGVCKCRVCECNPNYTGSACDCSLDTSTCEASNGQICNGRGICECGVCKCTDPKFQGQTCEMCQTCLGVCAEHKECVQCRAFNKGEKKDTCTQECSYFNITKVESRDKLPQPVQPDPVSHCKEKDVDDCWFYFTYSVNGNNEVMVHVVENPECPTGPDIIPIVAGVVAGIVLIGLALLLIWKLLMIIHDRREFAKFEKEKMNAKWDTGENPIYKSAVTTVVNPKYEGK
# UniProt P06756, sequence (whole entry, looked up): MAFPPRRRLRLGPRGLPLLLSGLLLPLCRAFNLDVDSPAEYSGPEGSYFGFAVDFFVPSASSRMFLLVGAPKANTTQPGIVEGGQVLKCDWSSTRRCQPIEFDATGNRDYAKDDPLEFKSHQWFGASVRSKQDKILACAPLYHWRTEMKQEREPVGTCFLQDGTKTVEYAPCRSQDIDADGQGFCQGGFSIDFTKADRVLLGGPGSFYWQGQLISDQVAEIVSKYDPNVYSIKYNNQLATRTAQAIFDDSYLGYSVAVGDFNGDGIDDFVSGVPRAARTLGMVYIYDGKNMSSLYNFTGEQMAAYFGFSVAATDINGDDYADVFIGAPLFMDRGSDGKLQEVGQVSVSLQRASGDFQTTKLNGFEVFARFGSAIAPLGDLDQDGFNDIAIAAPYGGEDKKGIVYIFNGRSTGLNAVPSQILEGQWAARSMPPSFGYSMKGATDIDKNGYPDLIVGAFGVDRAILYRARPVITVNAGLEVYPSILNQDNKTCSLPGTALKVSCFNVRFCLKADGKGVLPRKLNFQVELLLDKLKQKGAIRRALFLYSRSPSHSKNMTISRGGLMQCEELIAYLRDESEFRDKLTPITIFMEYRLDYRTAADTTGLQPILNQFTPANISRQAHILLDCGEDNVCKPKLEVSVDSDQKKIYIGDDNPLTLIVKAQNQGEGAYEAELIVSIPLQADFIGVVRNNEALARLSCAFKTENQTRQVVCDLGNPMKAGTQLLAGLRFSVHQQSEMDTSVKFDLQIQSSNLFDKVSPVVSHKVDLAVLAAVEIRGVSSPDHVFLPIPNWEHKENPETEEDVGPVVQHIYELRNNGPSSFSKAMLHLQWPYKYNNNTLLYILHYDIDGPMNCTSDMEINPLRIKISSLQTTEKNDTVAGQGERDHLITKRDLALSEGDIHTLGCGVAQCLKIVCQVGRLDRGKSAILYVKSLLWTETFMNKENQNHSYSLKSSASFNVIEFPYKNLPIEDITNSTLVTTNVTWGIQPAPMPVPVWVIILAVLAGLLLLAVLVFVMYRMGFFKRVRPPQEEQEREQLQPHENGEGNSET
# UniProt P28074, sequence (whole entry, looked up): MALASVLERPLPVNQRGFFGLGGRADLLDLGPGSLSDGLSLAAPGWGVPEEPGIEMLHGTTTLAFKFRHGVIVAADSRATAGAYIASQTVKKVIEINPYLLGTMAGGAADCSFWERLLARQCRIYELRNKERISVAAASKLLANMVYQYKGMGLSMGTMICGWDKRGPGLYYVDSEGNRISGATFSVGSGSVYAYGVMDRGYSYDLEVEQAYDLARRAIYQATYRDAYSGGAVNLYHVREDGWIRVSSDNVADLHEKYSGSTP
# UniProt B2I0Z6, sequence (whole entry, looked up): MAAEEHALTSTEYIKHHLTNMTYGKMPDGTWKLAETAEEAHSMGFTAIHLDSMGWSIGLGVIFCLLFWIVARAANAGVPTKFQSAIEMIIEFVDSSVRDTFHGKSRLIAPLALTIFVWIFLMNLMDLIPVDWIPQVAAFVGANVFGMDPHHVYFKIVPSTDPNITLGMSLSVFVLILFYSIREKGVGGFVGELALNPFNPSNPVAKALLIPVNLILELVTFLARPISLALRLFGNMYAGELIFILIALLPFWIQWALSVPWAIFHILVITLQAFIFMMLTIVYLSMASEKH
SMILES,target,assay,test system,setting,how to read,IC50
NC(N)=NS(=O)(=O)c1ccc(NC(=O)CCC(=O)O)cc1,"DPP4 (Homo sapiens, UniProt P27487)","enzyme activity, inhibitor, fluorescence",,,,54.4 µM
Cc1nn(-c2cccc(N)c2)c(=O)c2cnc(Nc3ccc(N4CCNCC4)cc3)nc12,"TEK (Homo sapiens, UniProt Q02763)","enzyme activity, inhibitor",,,,> 10 µM
CCCCCCC1CCC/C1=N\NC(N)=S (centres unmarked),"Scavenger receptor class B member 1 (Mus musculus, UniProt Q61009)","transporter uptake, inhibitor",,,,0.011 µM
CN(CB(O)O)C(=S)[C@@H](N)CCC(=O)O,"DPP9 (Homo sapiens, UniProt Q86TI2)","enzyme activity, inhibitor, fluorescence",,,,11 µM
Cn1c(S)nnc1-c1ccc(F)cc1,CELF1 del215-384,"CELF1-RNA binding, inhibitor, fluorescence polarization",,"20 nM CELF1, with: 10 nM RNA",,0.63 ± 0.16 µM
Cc1nc2ccccc2c(=O)n1N,"Prothrombin (F2, Homo sapiens, UniProt P00734)","enzyme activity, inhibitor",,,,79.9 µM
O=C(NS(=O)(=O)c1cccs1)c1cc2ccccc2n1Cc1ccc(Br)c2ccccc12,"SLC22A11 (Homo sapiens, UniProt Q9NSA0)","transporter uptake, inhibitor",,,,6.08 µM
Cc1c(COc2cc(OCc3cccc(C#N)c3)c(CNC(CO)(CO)CO)cc2Cl)cccc1-c1cccc(OCCCCCC(=O)NO)c1,CD274 with PD-1,"PD-1/PD-L1 binding, inhibitor, HTRF",,,,0.0125 µM
Fc1ccc2nc(NCCCN[C@@H]3CCNc4c(Cl)cc(Cl)cc43)[nH]c2n1,"Methionyl-tRNA synthetase, putative","enzyme activity, inhibitor",,,,< 0.01 µM
CCN1CCC(CCNCc2cc3ccccc3nc2SCc2ccccc2)CC1,"atpE/atpB (Acinetobacter baumannii, UniProt A3M139+B2I0Z6)","ATP synthesis, inhibitor",Acinetobacter baumannii inverted membrane vesicles,with: NADH,,0.858 µM
CC1CCCN(CCCNC(=O)C2=Cc3sc4c(c3CS2)CCCC4)C1 (centres unmarked),"Catenin beta-1, with BCL9 HD2 (CTNNB1, Homo sapiens, UniProt P35222)","BCL9 binding, inhibitor, AlphaScreen",,,,9 µM
Cc1ccc(N2CCNCC2COc2ccc3c(c2)OCO3)cc1 (centres unmarked),"P2X purinoceptor 4 (P2RX4, Homo sapiens, UniProt Q99571)","calcium flux, inhibitor, Ca2+ flux",human cells,,,2.69 ± 1.32 µM
CC(C)C[C@H](NC(=O)[C@H](Cc1ccc(CN)cc1)NC(=O)[C@H](Cc1ccccc1)N=[N+]=[N-])C(=O)N[C@@H](CC1CC2CCC1C2)C(=O)[C@@]1(C)CO1 (stereo in doubt),Proteasome subunit beta type-9,competitive ABPP,Raji cell lysate,,,> 10 µM
CCN(CC)CCCNc1c2c(c(C#N)c3nc4ccccc4n13)CCC2,"ERO1-like protein alpha (Homo sapiens, UniProt Q96HE7)","enzyme activity, inhibitor, fluorescence",,,,23.8 µM
CC(=O)N[C@@H](CCCNC(=N)N)C(=O)N[C@H]1CSSC[C@@H](C(N)=O)NC(=O)[C@H](Cc2c[nH]c3ccccc23)NC(=O)[C@H](CCCNC(=N)N)NC(=O)[C@@H](Cc2ccc3ccccc3c2)NC(=O)[C@H](Cc2c[nH]cn2)NC(=O)[C@@H](C)NC1=O,"MC3R (Homo sapiens, UniProt P41968)","cAMP, antagonist, split-luciferase cAMP sensor",,"12 min, with: α-MSH 30 nM (EC90)",,0.0218 µM
N#Cc1c(N)nc2c(c1-c1ccc(CO)o1)Cc1cccc(O)c1-2,Thymocyte selection-associated high mobility group box protein TOX with KAT7,"TOX-KAT7 binding, inhibitor, ELISA",,,no inhibition at 10 µM,6 µM
NC(=O)c1ncn(C2OC(COP(=O)(O)O)C(O)C2O)c1N (centres unmarked),"Fructose-1,6-bisphosphatase 1 (Mus musculus, UniProt Q9QXD6)","enzyme activity, inhibitor",,,,108 µM
CCCC(=O)OC1CCC2(C)C(CCC3(C)C2CC=C2C4C(C)C(C)CCC4(C(=O)O)CCC23C)C1(C)C (centres unmarked),"UGT1A9 (Homo sapiens, UniProt O60656)","enzyme activity, inhibitor",,,,> 100 µM
C/C=C/C(=O)Nc1ccc2nc(NCCCCCN(C)C)nc(NCCCCCCN(C)C)c2c1,"SETDB1 (Homo sapiens, UniProt Q15047)","enzyme activity, inhibitor",,,,165 µM and 105 µM and 123 µM
CC1(C)C(=O)N=C2C1=C(O)C(=O)c1ccccc12,"EHMT2 (Homo sapiens, UniProt Q96KQ7)","enzyme activity, inhibitor",,,,3.2 µM
C[C@@H](O)[C@H](NC(=O)[C@@H]1CSSC[C@@H](NC(=O)[C@H](Cc2ccccc2)NC(N)=O)C(=O)N[C@@H](Cc2ccc(NC(N)=O)cc2)C(=O)N[C@H](Cc2c[nH]c3ccccc23)C(=O)N[C@@H](CCCCN)C(=O)N[C@@H]([C@@H](C)O)C(=O)N1)C(N)=O,"SSTR3 (Homo sapiens, UniProt P32745)","ligand displacement, radioligand",,,,> 1 µM
N#Cc1c(N)nc2c(c1-c1ccc(F)cc1)Cc1cc(O)ccc1-2,Thymocyte selection-associated high mobility group box protein TOX with KAT7,"TOX-KAT7 binding, inhibitor, ELISA",,,no inhibition at 10 µM,> 10 µM
CCOc1cc(CN2CC3(CC(N4CCC(C(=O)O)CC4)=NO3)C2)cc(OCC)c1-c1ccc(F)cc1,"SSTR5 (Homo sapiens, UniProt P35346, L174A)","cAMP level, antagonist, GloSensor",AD293,"L174A mutant, bandwidth 4.60, with: CST17 EC80 and forskolin",,5.89 µM
O=C(Cc1ccc(OCc2ccccc2)cc1)NC1(C(=O)O)CCN(C(=O)c2ccc(-c3cccc(Cl)c3)cc2)CC1,"LPAR4 (Homo sapiens, UniProt Q99677)","antagonist, GloSensor cAMP",,,,> 10 µM
Cc1c(COc2cc(OCc3cccc(C#N)c3)c(CNC(CO)CO)cc2Cl)cccc1-c1cccc(OCCCCCCC(=O)NO)c1,CD274 with PD-1,"PD-1/PD-L1 binding, inhibitor, HTRF",,,,0.0515 µM
CC(C)C[C@H](NC(=O)c1ccccc1)C(=O)N[C@@H](CC(C)C)C(=O)N[C@H](/C=C/S(C)(=O)=O)Cc1ccc(CN)cc1,Proteasome subunit beta type-9,competitive ABPP,Raji cell lysate,,,> 10 µM
O=C(Nc1cccc(N2CCNCC2)c1)c1cc(-c2ccccc2)n(-c2ccccc2)n1,"Genome polyprotein, NS2B-NS3 protease (West Nile virus, UniProt P06935)","protease activity, inhibitor",,isolated protease,,32 µM
O=C(CNC(=O)c1cccc(NC2=NCC(F)(F)CN2)c1)NC[C@H](NC(=O)c1c(Cl)cc(-c2ccccc2)cc1Cl)C(=O)O,"Integrin alpha-V/beta-5 (Homo sapiens, UniProt P06756+P18084)","cell adhesion, inhibitor",SW480,with: vitronectin 1 µg/mL,,100 µM
Clc1cc(Cl)c2c(c1)[C@H](NCCCNc1nc3cccnc3[nH]1)CCO2,"Methionyl-tRNA synthetase, putative","enzyme activity, inhibitor",,,,< 0.01 µM
CC(C)c1noc(CN2CC(C)N(Cc3nc(C(C)C)no3)c3ccccc32)n1 (centres unmarked),"CXCR4 (Homo sapiens, UniProt P61073)","β-arrestin recruitment, antagonist",,,,13 µM
CCCCCCCCCCCC(=O)O,"uncharacterized protein (Spodoptera exigua, UniProt F1CEY0)","binding, fluorescence competitive binding",,with: 1-NPN 2.0 µM,,2.99 µM
CC(=O)Nc1ccc(CN(CC(=O)Nc2ccccc2F)C(=O)c2ccc(S(N)(=O)=O)c(C)c2)cc1,CA9,"enzyme activity, inhibitor",,,,0.0417 µM
N#Cc1cccc(-c2cc(Cl)c(C(=O)N[C@@H](CNC(=O)CNC(=O)c3cccc(NC(=N)N)c3)C(=O)O)c(Cl)c2)c1,Integrin alpha-5/beta-1,"cell adhesion, inhibitor",SW480,with: fibronectin 0.3 µg/mL,,0.01 µM
CC(C)[C@H](NC(=O)[C@@H]1CCCN1C(=O)[C@H](CCCCN)NC(=O)[C@H](Cc1ccccc1)NC(=O)[C@H](Cc1ccccc1)NC(=O)[C@H](CC(=O)O)NC(=O)[C@H](CCC(=O)O)NC(=O)[C@H](Cc1ccc(O)cc1)NC(=O)[C@H](CC(=O)O)NC(=O)[C@H](CCC(=O)O)NC(=O)[C@H](CC(=O)O)NC(=O)[C@@H](N)CCC(=O)O)C(=O)N[C@H](C(=O)N[C@@H](C)C(=O)N[C@@H](Cc1ccc(O)cc1)C(=O)N[C@@H](Cc1ccccc1)C(N)=O)[C@@H](C)O,"CCL2 (Homo sapiens, UniProt P13500)","chemokine binding, flow cytometry",THP-1,with: fluorescent CCL2 1.2 nM,,58.1 µM
Sc1nnc(-c2cccs2)[nH]1,CELF1 del215-384,"CELF1-RNA binding, inhibitor, fluorescence polarization",,"20 nM CELF1, with: 10 nM RNA",,0.32 ± 0.03 µM
CC(C)C[C@H](NC(=O)[C@H](Cc1ccc(CN)cc1)NC(=O)[C@H](Cc1ccccc1)N=[N+]=[N-])C(=O)N[C@@H](CC1CCC(C)CC1)C(=O)[C@@]1(C)CO1 (some centres unmarked),"PSMB5 (Homo sapiens, UniProt P28074)",competitive ABPP,Raji cell lysate,,,0.145 µM
S=c1[nH]nc(Cc2ccccc2)[nH]1,CELF1 del215-384,"CELF1-RNA binding, inhibitor, fluorescence polarization",,"20 nM CELF1, with: 10 nM RNA",,0.36 ± 0.04 µM
Fc1ccc(Nc2nc(NC3CCCCC3)c3cc(C(F)(F)F)ccc3n2)cc1F,"ADRB2 (Homo sapiens, UniProt P07550, I153L)","β-arrestin2 recruitment, antagonist, BRET",HEK293,"mutant I153L, with: isoprenaline 1 µM",,0.398 µM
N#Cc1ccc(NC(=O)Nc2ccccc2O)cc1,"SRPK3 (Homo sapiens, UniProt Q9UPE1)","enzyme activity, inhibitor, FRET",,,,2.1 µM
C#CCNC(=O)c1ccc(S(=O)(=O)N[C@@H](CCCCNC(=S)NC)C(=O)N[C@@H](CCCNC(=N)N)C(=O)N[C@@H](CC2CCCCC2)C(N)=O)cc1,"SIRT3 (Homo sapiens, UniProt Q9NTG7)","enzyme activity, inhibitor, fluorescence",,,,0.51 µM
COCCN(C)CC(=O)NC(Cc1ccc(-c2ccccc2)cc1)B(O)O (centres unmarked),"20S proteasome beta subunits, part β2 subunit (Plasmodium falciparum, UniProt Q8I261+Q8I6T3)","β2 activity, inhibitor",,with: Ac-WLR-AMC,,> 10 µM
Cc1nn(-c2ccc(S(N)(=O)=O)cc2)c(C)c1CCC(=O)Nc1cccc(OCc2cn(C)nn2)c1,CA9,"enzyme activity, inhibitor",,,,0.0117 µM
COC1CCC(C[C@H](NC(=O)[C@H](CC(C)C)NC(=O)[C@H](Cc2ccc(CN)cc2)NC(=O)[C@H](Cc2ccccc2)N=[N+]=[N-])C(=O)[C@@]2(C)CO2)CC1 (some centres unmarked),Proteasome subunit beta type-9,competitive ABPP,Raji cell lysate,,,0.761 µM
N#C/N=C(\N)Nc1cccc(C(=O)NCC(=O)NC[C@H](NC(=O)c2c(Cl)cc(-c3ccccc3)cc2Cl)C(=O)O)c1,Integrin alpha-5/beta-1,"cell adhesion, inhibitor",SW480,with: fibronectin 0.3 µg/mL,,0.0501 µM

# A few entries again:
SMILES,target,assay,test system,setting,how to read,IC50
CC(=O)Nc1ccc(CN(CC(=O)Nc2ccccc2F)C(=O)c2ccc(S(N)(=O)=O)c(C)c2)cc1,CA9,"enzyme activity, inhibitor",,,,0.0417 µM
CCOc1cc(CN2CC3(CC(N4CCC(C(=O)O)CC4)=NO3)C2)cc(OCC)c1-c1ccc(F)cc1,"SSTR5 (Homo sapiens, UniProt P35346, L174A)","cAMP level, antagonist, GloSensor",AD293,"L174A mutant, bandwidth 4.60, with: CST17 EC80 and forskolin",,5.89 µM
O=C(Cc1ccc(OCc2ccccc2)cc1)NC1(C(=O)O)CCN(C(=O)c2ccc(-c3cccc(Cl)c3)cc2)CC1,"LPAR4 (Homo sapiens, UniProt Q99677)","antagonist, GloSensor cAMP",,,,> 10 µM
O=C(Nc1cccc(N2CCNCC2)c1)c1cc(-c2ccccc2)n(-c2ccccc2)n1,"Genome polyprotein, NS2B-NS3 protease (West Nile virus, UniProt P06935)","protease activity, inhibitor",,isolated protease,,32 µM
